Published values pooled from the literature.
Parts stem from different laboratories: compare values within a part only.
Chain of UniProt O15294 (whole entry, looked up): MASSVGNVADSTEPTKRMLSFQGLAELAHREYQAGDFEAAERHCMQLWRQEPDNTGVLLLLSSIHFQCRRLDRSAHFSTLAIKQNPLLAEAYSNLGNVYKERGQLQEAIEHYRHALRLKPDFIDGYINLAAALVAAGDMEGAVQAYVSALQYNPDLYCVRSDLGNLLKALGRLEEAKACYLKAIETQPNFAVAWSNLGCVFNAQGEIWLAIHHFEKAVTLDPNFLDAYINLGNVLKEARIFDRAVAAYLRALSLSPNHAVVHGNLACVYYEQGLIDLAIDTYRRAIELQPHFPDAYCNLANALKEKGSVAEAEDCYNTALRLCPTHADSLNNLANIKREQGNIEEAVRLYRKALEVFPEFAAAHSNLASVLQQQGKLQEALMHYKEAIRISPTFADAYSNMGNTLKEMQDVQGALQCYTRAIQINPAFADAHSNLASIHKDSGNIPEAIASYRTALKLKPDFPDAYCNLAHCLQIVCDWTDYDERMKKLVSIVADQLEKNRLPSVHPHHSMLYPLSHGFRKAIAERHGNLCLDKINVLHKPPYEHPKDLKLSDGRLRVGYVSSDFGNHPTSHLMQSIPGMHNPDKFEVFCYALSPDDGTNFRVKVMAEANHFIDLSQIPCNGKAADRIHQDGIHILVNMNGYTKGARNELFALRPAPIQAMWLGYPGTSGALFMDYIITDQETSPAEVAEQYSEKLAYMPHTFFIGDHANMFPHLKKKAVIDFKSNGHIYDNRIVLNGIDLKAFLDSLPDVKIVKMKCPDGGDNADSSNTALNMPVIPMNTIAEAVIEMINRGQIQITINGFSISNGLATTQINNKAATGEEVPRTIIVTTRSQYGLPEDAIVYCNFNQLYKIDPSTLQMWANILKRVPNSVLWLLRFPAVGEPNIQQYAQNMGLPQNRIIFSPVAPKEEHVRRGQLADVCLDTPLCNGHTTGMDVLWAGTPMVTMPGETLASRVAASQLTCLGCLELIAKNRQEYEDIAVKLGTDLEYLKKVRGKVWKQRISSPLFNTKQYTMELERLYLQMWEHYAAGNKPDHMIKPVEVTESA

Set 1 — technique: RNA Bind-n-Seq; molecule type: RNA; matrix: in vitro; concentration: not given; relative to: input RNA pool; direction: higher = stronger binding
Target: RING finger protein unkempt homolog, zinc fingers 1-6, GST-SBP tag (UNK, Homo sapiens, UniProt Q9C0B0, residues 30-357)
Chain of UniProt Q9C0B0 (30-357, looked up): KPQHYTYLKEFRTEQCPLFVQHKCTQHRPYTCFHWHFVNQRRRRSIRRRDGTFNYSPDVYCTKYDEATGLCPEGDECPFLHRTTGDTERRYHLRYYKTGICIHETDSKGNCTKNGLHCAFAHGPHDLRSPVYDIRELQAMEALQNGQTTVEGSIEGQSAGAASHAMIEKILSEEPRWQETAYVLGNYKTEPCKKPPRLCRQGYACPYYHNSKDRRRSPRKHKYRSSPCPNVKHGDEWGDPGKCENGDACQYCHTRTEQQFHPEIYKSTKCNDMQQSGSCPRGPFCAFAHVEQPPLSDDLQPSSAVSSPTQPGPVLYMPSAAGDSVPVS
Notes: RNA with constant flanks, human and mouse sites, ends assumed
Shared flanks, not repeated: GGGAGUUCUACAGUCCGACGAUC … CAACAGAGGAUUGAGCAUCA
Oligonucleotide | bound/input enrichment
UAACCACAUCAAGAUGGUUGGAAAGCUGAAGCAGAACUUACUAUUGGCAUGUCUGGUGAUUAGUUCUGUGACUGUGUUUUACCUGGGCCAGCAUGCCAUGGAAUGCCAUCACCGGAUAGA | 0.134 ratio
AGGUGACCAGCAGGAGAGGUGCUGUCCUUCCCCCUAUUUUUACUGAUAUCUCUGUUGGGAUUUUAAAGGAAAUGACUGCUGGUAGAGCUAUGCAGAACCUACGCUCUCACUCUCCUCUGA | 0.331 ratio
AAUUAUGUACAUCAAAGAUAUCCUAGAUGUAGAGACGAUGGUGUCUGGGAUAAAAGGCAGAGUUAGUUUCUCUCAUAGCAUAUAUUGGCAGAAAUGGUUCUGCAAGAUGCUCAAAGGCAU | 7.04 ratio
CUCUAGGCUUUUCAGAUGUGGAUCAUACCUAUGCUCAAAGAACUCAGCUCUUUGACACCUUAGUAAAUUUCUUUCCUGACAGCAUGACUCCUCCUAAAGGCAACCUGGUAGACCUGAUCA | 9.8 ratio
UAUGGGGAUCAAUACAGAGCAACUGAUUUUGUUGUUCCUGGGCCUGGAAAAGUAGAGAUAACCUACACACCAAGUGACGGAACCCAAAAGGUGACAUACCUGGUACAUAACUUUGAAGAA | 0.182 ratio
UGAACACAAUUCAUAAAGAUUUCUCUUUUAUACCUUCCUCACUGGCCCCCUCCACCUGCCCAUAGUCACCAAAUUCUGUUUUAAAUCAAUGACCUAAGAUCAACAAUGAAGUAUUUUAUA | 3.33 ratio
UUCCCUGGAGAGUUCAUGAAGAGCUGGAAUGACUGCCUCAACAAAGAAGGCUUUGACAAAAUAGAUAUCAGUGCAGUUGUGGCAUAUACCAUCGCUGUAAAGGAGGAUGGGGAGCUCAAC | 0.711 ratio
AUGAAGCCAAAUAUUGAACCUCCUGAGAAUGUGGAGUGGAGUGGUGCUGAAGCCUCCAUGUUUAGAGUCCUCAUUGGUACUUACUACGAUAACUUUUGUGCCAUUGCUAGGCUAAUUGGG | 0.306 ratio

Set 2 — technique: protein-binding microarray; molecule type: hairpin DNA; matrix: in vitro; concentration: not given; relative to: not given; direction: higher = stronger binding; shared flanks, not repeated: GCAGGCC … GGCCTGCACACTCTTTCCCTACACGAC
Target: Transcription factor SOX-2, HMG box (SOX2, Homo sapiens, UniProt P48431, residues 37-118)
Chain of UniProt P48431 (37-118, looked up): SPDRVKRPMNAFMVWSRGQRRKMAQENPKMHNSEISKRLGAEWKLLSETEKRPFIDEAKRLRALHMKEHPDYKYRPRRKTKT
Notes: whole hairpin DNA, median over replicate spots
Oligonucleotide | median fluorescence [a.u.]
GACAATGGGCCTCCTGGCCCATTGTC | 3200
CTCAATGGGCCTCCTGGCCCATTGAG | 3110
CACAACAGGCCTCCTGGCCTGTTGTG | 2660
CCAAATGGGCCTCCTGGCCCATTTGG | 2520
CAGAATGGGCCTCCTGGCCCATTCTG | 2500
CACAATGAGCCTCCTGGCTCATTGTG | 3380
CACCGTGGGCCTCCTGGCCCACGGTG (5mC at 29) | 2330
CCGAATGGGCCTCCTGGCCCATTCGG | 2500

Set 3 — technique: protein-binding microarray; molecule type: double-stranded DNA, one strand shown; matrix: in vitro; concentration: not given; direction: higher = stronger binding
Target: Transcription factor Sp1 (SP1, Homo sapiens, UniProt P08047, residues 1-785, full length assumed)
Chain of UniProt P08047 (whole entry, looked up): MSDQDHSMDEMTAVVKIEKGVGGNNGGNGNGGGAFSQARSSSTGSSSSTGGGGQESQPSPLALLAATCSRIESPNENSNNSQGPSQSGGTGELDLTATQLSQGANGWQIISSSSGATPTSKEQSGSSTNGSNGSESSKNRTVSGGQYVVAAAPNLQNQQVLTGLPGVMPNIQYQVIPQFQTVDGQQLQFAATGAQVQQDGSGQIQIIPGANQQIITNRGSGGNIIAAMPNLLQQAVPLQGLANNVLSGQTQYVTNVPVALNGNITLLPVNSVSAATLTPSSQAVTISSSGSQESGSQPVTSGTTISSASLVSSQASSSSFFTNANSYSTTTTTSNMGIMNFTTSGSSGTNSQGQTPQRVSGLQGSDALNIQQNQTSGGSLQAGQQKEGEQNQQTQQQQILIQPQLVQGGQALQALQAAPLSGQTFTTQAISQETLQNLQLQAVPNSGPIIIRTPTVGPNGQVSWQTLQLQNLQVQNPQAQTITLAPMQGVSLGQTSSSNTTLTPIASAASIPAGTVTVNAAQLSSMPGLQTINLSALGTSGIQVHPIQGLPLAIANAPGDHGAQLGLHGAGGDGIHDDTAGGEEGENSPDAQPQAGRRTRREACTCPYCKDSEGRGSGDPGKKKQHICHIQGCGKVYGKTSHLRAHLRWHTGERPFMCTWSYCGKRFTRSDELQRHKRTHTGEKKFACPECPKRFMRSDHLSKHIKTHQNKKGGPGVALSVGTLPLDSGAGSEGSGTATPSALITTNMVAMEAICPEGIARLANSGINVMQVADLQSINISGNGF
Notes: k-mer, scored over probes, only values ≥0.25
Oligonucleotide | E-score
CACCACCA | 0.261
ATGTGTAA | 0.299
AGTATCTA | 0.311
ACCCACAT | 0.263
CCCCTCGC | 0.266
CCGCCCCC | 0.494
CCAAAACC | 0.251
GGGAATGA | 0.263

Other studies, line by line
Molecule | target | assay | system | conditions | scale | measurement | value
HSWYGPTHHSVHDTT | UDP-N-acetylglucosamine--peptide N-acetylglucosaminyltransferase 110 kDa subunit (OGT, Homo sapiens, UniProt O15294) | binding, phage display NGS | peptide | concentration not given | relative to: input library | enrichment fold change | 5.27

A few entries again (set 2):
Oligonucleotide | median fluorescence [a.u.]
CACCGTGGGCCTCCTGGCCCACGGTG (5mC at 29) | 2330
